Results from different studies.
Compare with care: the assays were run in different laboratories. Values joined by “and” are separate records of one study, mostly repeats; a detail may differ. Numbers after ± are the reported error.
Oprm1: Mu-type opioid receptor (Oprm1, Rattus norvegicus, UniProt P33535)
Chain of UniProt P33535 (whole entry, looked up): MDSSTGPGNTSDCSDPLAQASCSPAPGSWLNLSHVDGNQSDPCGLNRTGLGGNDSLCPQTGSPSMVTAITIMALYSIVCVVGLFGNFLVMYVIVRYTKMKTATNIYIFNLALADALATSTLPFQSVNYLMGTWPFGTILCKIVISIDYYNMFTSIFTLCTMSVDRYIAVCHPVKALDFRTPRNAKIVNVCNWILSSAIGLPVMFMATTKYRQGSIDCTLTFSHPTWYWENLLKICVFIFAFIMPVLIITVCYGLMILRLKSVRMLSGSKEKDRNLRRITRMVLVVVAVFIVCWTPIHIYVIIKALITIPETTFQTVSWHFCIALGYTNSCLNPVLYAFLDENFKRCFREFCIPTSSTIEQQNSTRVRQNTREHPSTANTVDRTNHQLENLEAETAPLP
sdiA: Regulatory protein SdiA (sdiA, Escherichia coli, UniProt P07026)
Chain of UniProt P07026 (whole entry, looked up): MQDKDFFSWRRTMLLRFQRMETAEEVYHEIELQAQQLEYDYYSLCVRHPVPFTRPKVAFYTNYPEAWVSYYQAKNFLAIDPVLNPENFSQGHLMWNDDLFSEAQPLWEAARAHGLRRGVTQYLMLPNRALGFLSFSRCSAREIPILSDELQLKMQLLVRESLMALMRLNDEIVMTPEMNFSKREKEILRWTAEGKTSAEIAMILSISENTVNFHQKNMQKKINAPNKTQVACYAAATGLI
Uncharacterized hydrolase SAUSA300_2518: Uncharacterized hydrolase SAUSA300_2518 (Staphylococcus aureus, UniProt Q2FDS6)
lasR: Transcriptional activator protein LasR (lasR, Pseudomonas aeruginosa, UniProt P25084)
Chain of UniProt D0VWV4 (whole entry, looked up): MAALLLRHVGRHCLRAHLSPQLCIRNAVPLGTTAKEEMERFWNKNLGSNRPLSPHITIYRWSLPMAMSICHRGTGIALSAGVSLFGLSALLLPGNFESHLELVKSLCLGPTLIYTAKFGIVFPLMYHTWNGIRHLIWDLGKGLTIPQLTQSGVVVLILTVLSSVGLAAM
Chain of UniProt A5GZW8 (whole entry, looked up): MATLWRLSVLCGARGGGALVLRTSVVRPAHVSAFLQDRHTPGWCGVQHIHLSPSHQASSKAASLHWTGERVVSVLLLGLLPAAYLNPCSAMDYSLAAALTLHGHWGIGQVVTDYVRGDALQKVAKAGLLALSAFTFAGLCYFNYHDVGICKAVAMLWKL
Chain of UniProt Q007T0 (whole entry, looked up): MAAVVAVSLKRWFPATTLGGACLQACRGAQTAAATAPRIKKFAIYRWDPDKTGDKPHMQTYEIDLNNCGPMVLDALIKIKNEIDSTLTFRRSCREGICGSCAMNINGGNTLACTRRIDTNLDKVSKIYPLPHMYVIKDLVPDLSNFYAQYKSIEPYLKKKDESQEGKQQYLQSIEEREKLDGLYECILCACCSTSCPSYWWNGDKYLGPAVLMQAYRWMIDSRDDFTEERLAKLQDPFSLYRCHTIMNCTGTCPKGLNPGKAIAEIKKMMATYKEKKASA
Chain of UniProt Q9UH17 (whole entry, looked up): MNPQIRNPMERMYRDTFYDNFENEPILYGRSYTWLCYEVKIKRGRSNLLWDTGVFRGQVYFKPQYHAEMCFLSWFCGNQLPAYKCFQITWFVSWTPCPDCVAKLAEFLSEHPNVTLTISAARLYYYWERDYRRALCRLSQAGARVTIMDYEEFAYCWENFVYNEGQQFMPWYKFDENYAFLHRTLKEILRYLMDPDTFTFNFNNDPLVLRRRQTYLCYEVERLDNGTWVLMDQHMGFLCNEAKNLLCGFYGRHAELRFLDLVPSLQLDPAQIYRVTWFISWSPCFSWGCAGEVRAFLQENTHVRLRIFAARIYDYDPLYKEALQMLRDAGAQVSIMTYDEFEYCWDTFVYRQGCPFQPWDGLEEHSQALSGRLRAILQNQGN
Chain of UniProt Q14145 (whole entry, looked up): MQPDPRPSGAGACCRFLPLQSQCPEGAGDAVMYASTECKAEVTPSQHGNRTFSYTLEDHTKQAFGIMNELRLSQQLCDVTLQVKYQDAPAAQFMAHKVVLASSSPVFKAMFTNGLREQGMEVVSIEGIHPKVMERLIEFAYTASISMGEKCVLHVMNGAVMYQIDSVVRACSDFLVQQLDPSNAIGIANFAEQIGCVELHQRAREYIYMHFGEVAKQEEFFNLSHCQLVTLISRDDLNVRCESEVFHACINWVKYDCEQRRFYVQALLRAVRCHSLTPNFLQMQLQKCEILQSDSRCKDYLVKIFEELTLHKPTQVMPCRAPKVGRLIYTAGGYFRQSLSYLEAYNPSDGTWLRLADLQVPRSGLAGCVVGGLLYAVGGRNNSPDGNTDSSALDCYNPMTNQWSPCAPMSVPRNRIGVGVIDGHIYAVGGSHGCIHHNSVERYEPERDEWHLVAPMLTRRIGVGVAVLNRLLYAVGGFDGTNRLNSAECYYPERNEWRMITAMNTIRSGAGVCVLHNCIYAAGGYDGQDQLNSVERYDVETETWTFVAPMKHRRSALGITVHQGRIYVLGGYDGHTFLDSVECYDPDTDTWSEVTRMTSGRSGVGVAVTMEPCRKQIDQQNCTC
Chain of UniProt Q9Y2J8 (whole entry, looked up): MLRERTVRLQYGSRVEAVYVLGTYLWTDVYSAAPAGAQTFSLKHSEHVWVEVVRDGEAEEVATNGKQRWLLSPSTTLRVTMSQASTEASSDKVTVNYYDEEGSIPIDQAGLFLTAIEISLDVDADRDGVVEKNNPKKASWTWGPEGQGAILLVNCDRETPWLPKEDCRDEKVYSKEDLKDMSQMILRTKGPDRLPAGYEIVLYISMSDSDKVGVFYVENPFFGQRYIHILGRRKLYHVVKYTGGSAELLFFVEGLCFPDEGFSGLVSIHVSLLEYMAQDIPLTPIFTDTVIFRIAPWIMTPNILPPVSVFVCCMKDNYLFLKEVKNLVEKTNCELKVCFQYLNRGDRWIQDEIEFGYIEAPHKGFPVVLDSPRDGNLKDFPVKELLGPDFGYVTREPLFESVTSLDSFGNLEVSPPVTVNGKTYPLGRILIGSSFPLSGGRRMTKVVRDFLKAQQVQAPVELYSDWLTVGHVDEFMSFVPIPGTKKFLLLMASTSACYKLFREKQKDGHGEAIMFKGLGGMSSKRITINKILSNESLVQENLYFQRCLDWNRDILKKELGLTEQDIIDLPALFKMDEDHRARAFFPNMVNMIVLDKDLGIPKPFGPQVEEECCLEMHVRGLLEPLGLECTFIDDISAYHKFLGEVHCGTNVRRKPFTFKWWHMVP
Chain of UniProt P21396 (whole entry, looked up): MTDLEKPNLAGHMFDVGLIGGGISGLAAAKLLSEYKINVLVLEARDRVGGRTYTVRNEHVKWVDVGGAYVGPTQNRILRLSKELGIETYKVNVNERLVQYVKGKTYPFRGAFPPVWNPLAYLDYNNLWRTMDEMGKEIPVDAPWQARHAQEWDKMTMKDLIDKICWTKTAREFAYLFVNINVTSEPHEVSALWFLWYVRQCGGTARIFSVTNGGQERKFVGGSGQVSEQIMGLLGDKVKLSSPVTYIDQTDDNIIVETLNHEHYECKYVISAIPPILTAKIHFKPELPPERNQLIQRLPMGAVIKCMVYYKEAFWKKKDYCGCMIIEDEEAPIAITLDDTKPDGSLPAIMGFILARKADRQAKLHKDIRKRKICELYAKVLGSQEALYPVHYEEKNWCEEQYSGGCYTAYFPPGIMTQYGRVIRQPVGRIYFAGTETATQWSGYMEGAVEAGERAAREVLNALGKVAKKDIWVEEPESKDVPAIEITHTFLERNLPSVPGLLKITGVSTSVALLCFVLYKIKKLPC

Structure (SMILES) = C[C@@H](O)[C@@H]1CN([C@H](Cc2ccc3ccccc3c2)CN2CCC[C@H]2CN2CCNC[C@@H]2CO)CCN1CCC12CC3CC(CC(C3)C1)C2; target = Oprm1; test = radioligand binding; system = rat brain membranes; conditions = 500 nM, pH 7.5, 25 °C, with: 0.87 nM [3H]DAMGO; endpoint = remaining binding; result = 102 ± 8.67%
Structure (SMILES) = O=C(Cc1ccc(Cl)cc1)N[C@H]1CCOC1=O; target = sdiA; endpoint = Emax; result = 88.2%
Structure (SMILES) = O=C1NC(=O)c2c1c1cc(F)c[n+]3c1c1c2c2cc(O)ccc2[n]1[Ru-4]312([N]=C=S)[S+]3CC[S+]1CC[S+]2CC3 (stereo not drawn); target = BTK (Homo sapiens, UniProt Q06187); test = enzyme activity; conditions = 100 nM, human enzyme, with: 10 µM ATP; how to read = relative to: untreated; endpoint = remaining activity; result = 78%
Structure (SMILES) = O=C(Cc1ccc(Br)cc1)N[C@H]1CCOC1=O; target = sdiA; endpoint = Emax; result = 93.8%
Structure (SMILES) = CN1CCCN(C(=O)c2ccc(S(=O)(=O)F)cc2)c2ccccc21; target = Uncharacterized hydrolase SAUSA300_2518; test = enzyme activity, inhibitor, fluorogenic substrate; conditions = 0.5 µM; endpoint = remaining activity; result = 113% and 112%
Structure (SMILES) = CCOC(=O)[C@@H]1Cc2c(cc([N+](=O)[O-])cc2[N+](=O)[O-])[C@H](O)[C@]12C(=O)Nc1ccc(Br)cc12; target = DYRK1B (Homo sapiens, UniProt Q9Y463); test = binding, competition with immobilised ligand; conditions = 0.1 µM; endpoint = remaining binding; result = 99%
Structure (SMILES) = CC(C)[C@H]1NC(=O)C[C@H]2/C=C/CCSSC[C@@H](NC1=O)C(=O)N[C@H](Cc1cccc3ccccc13)C(=O)NCC(=O)O2; target = NEK1 (Homo sapiens, UniProt Q96PY6); test = enzyme activity, inhibitor; conditions = 10 µM; endpoint = inhibition; result = 16.3%
Structure (SMILES) = N[C@H](C(=O)N1CCCC1)C1CCN(c2nccc3c(-c4ncc(Cl)cc4Cl)cccc23)CC1; target = PADI2 (Homo sapiens, UniProt Q9Y2J8); test = thermal shift; conditions = 3.004 µM; endpoint = melting temperature; result = 66.2 °C and 66.1 °C
Structure (SMILES) = O=C1C=C(Br)/C(=C/Br)O1; target = lasR; test = reporter gene, agonist; system = Escherichia coli JLD271; conditions = 10 µM, pSC11 and pJN105L plasmids; how to read = relative to: OdDHL at same concentration; endpoint = agonist activity; result = 1%
Structure (SMILES) = [CH3][Ti+2][O]C(=O)c1ccc([S][Au][PH](c2ccccc2)(c2ccccc2)c2ccccc2)cc1.c1cc[cH-]c1.c1cc[cH-]c1; target = PRKCG (Homo sapiens, UniProt P05129); test = inhibitor, radiometric HotSpot; conditions = 1 µM, with: 10 µM ATP; how to read = relative to: DMSO vehicle; endpoint = remaining kinase activity; result = 135% and 132%
Structure (SMILES) = C=CC(=O)Nc1cc(-c2ccc(C(=O)N3CCCC(O)(CC)C3)cc2)ccc1F (stereo not drawn); target = DNA dC->dU-editing enzyme APOBEC-3B, C-terminal domain (Homo sapiens, UniProt Q9UH17); test = covalent adduct, intact protein MS; conditions = 5 h, 1-fold, 25 µM; endpoint = unmodified protein; result = 100%
Structure (SMILES) = CCCCCCCCCC(=O)NC1CCCC1; target = lasR; test = reporter gene, antagonist; system = Escherichia coli, JLD271 with LasR plasmid; conditions = concentration not given, with: OdDHL 2 nM; endpoint = antagonist activity; result = inactive
Structure (SMILES) = CC[C@H](C)[C@H](NC(=O)[C@H](CCCNC(=N)N)NC(=O)[C@H](CCCNC(=N)N)NC(=O)[C@H](CC(C)C)NC(=O)[C@H](Cc1ccccc1)NC(=O)CNC(=O)CNC(=O)[C@@H](N)Cc1ccc(O)cc1)C(=O)N[C@@H](CCCNC(=N)N)C(=O)N1CCC[C@H]1C(=O)N[C@@H](CCCCN)C(=O)N[C@@H](CC(C)C)C(=O)N[C@@H](CCCCN)C(=O)O; target = GPR139 (Homo sapiens, UniProt Q6DWJ6); test = Gαi1 activation, agonist, BRET; system = HEK293T/17; conditions = 40 µM; endpoint = Emax; result = 64.2%
Structure (SMILES) = CN(C)CCCSC(=S)N1CCN(C(=O)/C=C/c2coc3ccccc3c2=O)CC1; target = Nucleoprotein (N, Tomato spotted wilt virus, UniProt P25999, Y184A); test = binding, microscale thermophoresis; conditions = 500 µM; how to read = dose series; endpoint = MST response; result = 854 a.u.
Structure (SMILES) = CN(C)[C@H]1C[C@@]23CC[C@@]4(O2)C(=CC[C@]2(C)[C@@H](c5ccc6ccncc6c5)CC[C@H]24)C=C3[C@@H](O)[C@@H]1O; target = STK4 (Homo sapiens, UniProt Q13043); test = ATP probe labelling, inhibitor, KiNativ profiling; conditions = 1 µM; endpoint = inhibition; result = 2.6%
Structure (SMILES) = CCCC[C@H]1CNCCN1C[C@@H]1CCCN1C[C@@H](Cc1ccc2ccccc2c1)N1CCN(CCC23CC4CC(CC(C4)C2)C3)[C@H]([C@H](C)CC)C1; target = Oprm1; test = radioligand binding; system = rat brain membranes; conditions = 500 nM, pH 7.5, 25 °C, with: 0.87 nM [3H]DAMGO; endpoint = remaining binding; result = 106 ± 4.4%
Structure (SMILES) = COc1ccccc1-c1n[nH]c2nc(N[C@H]3CC[C@H](NS(=O)(=O)CC(C)C)CC3)ncc12; target = cdc2-related kinase 12 (Leishmania donovani, UniProt A0A3S7WQK2); test = Kinobeads competition; system = Leishmania donovani extract; conditions = 10 µM, unit not given; how to read = relative to: vehicle; endpoint = remaining binding; result = 0.06
Structure (SMILES) = CS(C)(=O)=Nc1ccc(-c2ccc(-c3nc4cc(O[C@@H]5CO[C@H]6[C@@H]5OC[C@H]6O)[nH]c4cc3F)cc2)cc1; target = NTSR1 (Homo sapiens, UniProt P30989); test = calcium signal, antagonist; conditions = 10 µM; endpoint = inhibition; result = 41%
Structure (SMILES) = CCc1nnc(-c2c(OC)cc(-c3cnc4cc(-c5cnn(C)c5)ccn34)cc2OC)o1; target = PTGS1 (Homo sapiens, UniProt P23219); test = radioligand binding; conditions = 10 µM, SafetyScreen44 replicate 2; how to read = lower = stronger displacement; endpoint = remaining binding; result = 145%
Structure (SMILES) = CC(C)CC(O)(CC(C)C)c1cn(C(=O)N2CCCC2)nn1; target = Dipeptidyl peptidase 8 (Dpp8, Mus musculus, UniProt Q80YA7); test = probe labelling, inhibitor, competitive ABPP-SILAC, item: Dpp8; system = mouse T cells; conditions = concentration not given, 4 h, in situ, protein level; how to read = relative to: treated over DMSO, lower = more inhibition; endpoint = SILAC ratio; result = 1.33
Structure (SMILES) = C[C@@H](NC(=O)[C@@H](N)Cc1ccc(O)cc1)C(=O)NCC(=O)N[C@@H](Cc1ccccc1)C(=O)N[C@H](CCCNC(=N)N)C(=O)N[C@@H](CCCNC(=N)N)C(=O)N1CCC[C@H]1C(=O)N1C[C@H](O)C[C@H]1C(=O)NCC(=O)N[C@@H](Cc1cccs1)C(=O)N[C@@H](CO)C(=O)N1Cc2ccccc2C[C@@H]1C(=O)N1[C@H](C(=O)N[C@@H](CCCNC(=N)N)C(=O)O)C[C@@H]2CCCC[C@@H]21; target = B2 bradykinin receptor (Cavia porcellus, UniProt O70526); test = antagonist; system = guinea pig ileum; conditions = with: naloxone 1 µM; endpoint = antagonist activity; result = 1.7 nM
Structure (SMILES) = C#CCCCCOc1ccc2c(c1)CCCN2C(=O)CCl; target = NCEH1 (Homo sapiens, UniProt Q6PIU2); test = mass spectrometry profiling; system = Ramos cell lysate; conditions = 100 µM over 10 µM, UniProt Q6PIU2; how to read = relative to: high over low concentration; endpoint = reactivity ratio; result = 0.844
Structure (SMILES) = CC(C)[C@@H]1NC(=O)[C@H](CC(N)=O)NC(=O)CNC(=O)[C@H](CC(N)=O)NC(=O)[C@H](C)NC(=O)[C@H](CC(=O)O)NC(=O)[C@H]([C@@H](C)O)NC(=O)[C@H](CCC(=O)O)NC(=O)CNC(=O)[C@H]([C@@H](C)O)NC(=O)[C@H](CCC(=O)O)NC(=O)[C@H](CCC(=O)O)NC(=O)[C@H](CC(=O)O)NC1=O; target = KEAP1 (Homo sapiens, UniProt Q14145); test = Keap1-Nrf2 binding, inhibitor, competitive FP; conditions = 100 µM, 30 min, with: Nrf2 peptide probe; how to read = lower = stronger inhibition; endpoint = fluorescence polarization; result = 0.111 a.u. and 0.03 a.u.
Structure (SMILES) = CON(C(=O)c1cn(C)nc1C(F)F)C(C)Cc1c(Cl)cc(Cl)cc1Cl (stereo not drawn); target = SDHD/SDHC/SDHB (Sus scrofa, UniProt A5GZW8+D0VWV4+Q007T0); test = enzyme activity, inhibitor, DCIP reduction; system = pig; conditions = 0.3 µM, with: DCIP 80 µM; endpoint = reaction velocity; result = 0.0122 µM/s and 0.0114 µM/s and 0.0111 µM/s
Structure (SMILES) = O=C(Nc1ccncc1)c1ccccc1OS(=O)(=O)F; target = Uncharacterized hydrolase SAUSA300_2518; test = enzyme activity, inhibitor, fluorogenic substrate; conditions = 50 µM; endpoint = remaining activity; result = 36.6% and 36.2% and 36%
Structure (SMILES) = Cc1cc(O)cc(C)c1C[C@H](N)C(=O)N[C@H](CCCNC(=N)N)C(=O)N[C@@H](Cc1ccccc1)C(=O)N[C@@H](CCCCN)C(=O)NNC(=O)[C@H](Cc1ccccc1)NC(=O)[C@H](CC1CCCCC1)NC[C@@H]1Cc2ccccc2CN1C(=O)[C@@H](N)Cc1ccc(O)cc1; target = Oprm1; test = binding; system = rat brain membranes; conditions = with: [3H]DAMGO; how to read = relative to: Ki mu over Ki delta; endpoint = selectivity ratio; result = 4.91
Structure (SMILES) = CCCCCCCCCC(=O)CC(=O)N[C@H]1CCOC1=O; target = lasR; test = reporter gene, agonist; system = Escherichia coli JLD271; conditions = 10 µM, pSC11 and pJN105L plasmids; how to read = relative to: OdDHL at same concentration; endpoint = agonist activity; result = 93%
Structure (SMILES) = CCCO[C@H]1[C@H](O)[C@@H](N)[C@@H](O[C@H]2[C@H](O[C@@H]3O[C@H](CO)[C@@H](O[C@H]4O[C@@H](CN)[C@@H](O)[C@H](O)[C@H]4N)[C@H]3O)[C@@H](O)[C@H](N)C[C@@H]2N)O[C@@H]1CO; target = Maoa (Rattus norvegicus, UniProt P21396); test = radioligand binding; conditions = 10 µM, 1% DMSO; endpoint = specific binding; result = 2%
Structure (SMILES) = O=C(CCCCCCCCCN=C=S)CC(=O)N[C@H]1CCOC1=O; target = lasR; test = reporter gene, agonist; system = Pseudomonas aeruginosa PAO-JP2; conditions = 100 µM, plasI-LVAgfp reporter; how to read = relative to: OdDHL at same concentration; endpoint = agonist activity; result = 119%
Structure (SMILES) = Cc1cc(Nc2nc(C[C@@]3(C(=O)O)CCN(Cc4cccc(Cl)c4F)[C@H](C)C3)cc(C)c2F)[nH]n1; target = AVPR1A (Homo sapiens, UniProt P37288); test = agonist; conditions = 10 µM; endpoint = activation; result = 0.08%

Repeated from above:
Structure (SMILES) = C=CC(=O)Nc1cc(-c2ccc(C(=O)N3CCCC(O)(CC)C3)cc2)ccc1F (stereo not drawn); target = DNA dC->dU-editing enzyme APOBEC-3B, C-terminal domain (Homo sapiens, UniProt Q9UH17); test = covalent adduct, intact protein MS; conditions = 5 h, 1-fold, 25 µM; endpoint = unmodified protein; result = 100%
Structure (SMILES) = CCCC[C@H]1CNCCN1C[C@@H]1CCCN1C[C@@H](Cc1ccc2ccccc2c1)N1CCN(CCC23CC4CC(CC(C4)C2)C3)[C@H]([C@H](C)CC)C1; target = Oprm1; test = radioligand binding; system = rat brain membranes; conditions = 500 nM, pH 7.5, 25 °C, with: 0.87 nM [3H]DAMGO; endpoint = remaining binding; result = 106 ± 4.4%
Structure (SMILES) = O=C(Cc1ccc(Cl)cc1)N[C@H]1CCOC1=O; target = sdiA; endpoint = Emax; result = 88.2%
Structure (SMILES) = CC(C)[C@@H]1NC(=O)[C@H](CC(N)=O)NC(=O)CNC(=O)[C@H](CC(N)=O)NC(=O)[C@H](C)NC(=O)[C@H](CC(=O)O)NC(=O)[C@H]([C@@H](C)O)NC(=O)[C@H](CCC(=O)O)NC(=O)CNC(=O)[C@H]([C@@H](C)O)NC(=O)[C@H](CCC(=O)O)NC(=O)[C@H](CCC(=O)O)NC(=O)[C@H](CC(=O)O)NC1=O; target = KEAP1 (Homo sapiens, UniProt Q14145); test = Keap1-Nrf2 binding, inhibitor, competitive FP; conditions = 100 µM, 30 min, with: Nrf2 peptide probe; how to read = lower = stronger inhibition; endpoint = fluorescence polarization; result = 0.111 a.u. and 0.03 a.u.
Structure (SMILES) = CCOC(=O)[C@@H]1Cc2c(cc([N+](=O)[O-])cc2[N+](=O)[O-])[C@H](O)[C@]12C(=O)Nc1ccc(Br)cc12; target = DYRK1B (Homo sapiens, UniProt Q9Y463); test = binding, competition with immobilised ligand; conditions = 0.1 µM; endpoint = remaining binding; result = 99%
